Measurements gathered from unrelated publications.
Numbered parts are unrelated; each lists some results of a single study. Positions count from the first letter of the parent shown.

Block 1 — target: tungstate, free oxyanion; technique: microfluidic competitive inhibition; medium: in vitro, cell-free expressed; concentration: not given; reading: lower = stronger binding
Notes: derived from inhibition constants, unchanged parent 2230 nM
Parent: PafA, mature enzyme, eGFP fusion (Elizabethkingia meningoseptica, UniProt Q9KJX5); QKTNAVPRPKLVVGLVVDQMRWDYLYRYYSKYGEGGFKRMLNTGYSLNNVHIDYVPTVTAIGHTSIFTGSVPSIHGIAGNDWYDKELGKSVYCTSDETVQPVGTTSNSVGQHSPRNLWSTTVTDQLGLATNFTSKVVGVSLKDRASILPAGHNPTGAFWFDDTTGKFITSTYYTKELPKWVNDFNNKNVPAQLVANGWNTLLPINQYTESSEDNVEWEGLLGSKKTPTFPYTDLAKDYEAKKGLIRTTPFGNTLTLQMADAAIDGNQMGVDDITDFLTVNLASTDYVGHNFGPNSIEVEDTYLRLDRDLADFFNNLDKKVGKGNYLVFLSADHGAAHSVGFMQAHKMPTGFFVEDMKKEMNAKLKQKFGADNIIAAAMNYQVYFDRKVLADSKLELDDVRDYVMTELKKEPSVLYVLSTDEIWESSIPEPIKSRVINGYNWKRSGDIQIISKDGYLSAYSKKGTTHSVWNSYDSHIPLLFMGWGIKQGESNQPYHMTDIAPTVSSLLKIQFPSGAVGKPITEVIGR
| Variant | oxyanion analog dissociation constant [µM] |
| --- | --- |
| Y207G | 1.4 |
| P430G | 1.66 |
| T419V | 1.6 |
| T247V | 1.77 |
| Y494V | 2.28 |
| I447V | 2.55 |

Block 2 — action: degrader; technique: HiBiT; cell line: HEK293
SMILES: O=C1CCC(N2Cc3c(ccc4c3OCC43CCN(Cc4ccccc4)CC3)C2=O)C(=O)N1 (stereo not drawn)
Target: CRBN/Zinc finger protein Helios (Homo sapiens, UniProt Q96SW2+Q9UKS7)
UniProt Q9UKS7, sequence (whole entry, looked up): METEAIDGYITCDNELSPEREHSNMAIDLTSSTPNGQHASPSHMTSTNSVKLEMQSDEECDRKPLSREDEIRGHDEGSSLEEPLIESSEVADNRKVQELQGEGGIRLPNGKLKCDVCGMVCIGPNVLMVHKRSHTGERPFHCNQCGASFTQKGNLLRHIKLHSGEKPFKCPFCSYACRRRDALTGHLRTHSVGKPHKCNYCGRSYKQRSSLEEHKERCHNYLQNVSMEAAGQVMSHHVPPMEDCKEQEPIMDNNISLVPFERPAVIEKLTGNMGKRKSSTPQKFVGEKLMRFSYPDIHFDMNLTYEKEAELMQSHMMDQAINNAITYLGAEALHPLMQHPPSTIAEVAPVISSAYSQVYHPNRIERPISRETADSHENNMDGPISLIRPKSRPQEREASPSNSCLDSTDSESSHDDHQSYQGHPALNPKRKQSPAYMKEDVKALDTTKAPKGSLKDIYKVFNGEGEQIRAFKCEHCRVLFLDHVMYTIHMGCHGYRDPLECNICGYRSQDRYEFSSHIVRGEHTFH
UniProt Q96SW2, sequence (whole entry, looked up): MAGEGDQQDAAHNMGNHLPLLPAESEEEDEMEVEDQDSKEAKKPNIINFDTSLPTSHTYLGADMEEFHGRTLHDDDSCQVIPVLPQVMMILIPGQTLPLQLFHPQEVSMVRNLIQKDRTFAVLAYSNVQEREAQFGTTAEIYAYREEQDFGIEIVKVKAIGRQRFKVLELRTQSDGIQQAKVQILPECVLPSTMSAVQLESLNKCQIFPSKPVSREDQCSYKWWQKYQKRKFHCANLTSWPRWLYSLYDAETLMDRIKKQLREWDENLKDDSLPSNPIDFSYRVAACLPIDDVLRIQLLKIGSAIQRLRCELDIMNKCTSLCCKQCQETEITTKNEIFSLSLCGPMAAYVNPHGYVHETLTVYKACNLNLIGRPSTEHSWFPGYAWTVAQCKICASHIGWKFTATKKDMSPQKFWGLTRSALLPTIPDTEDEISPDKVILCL
| concentration | time | protein remaining [%] |
| --- | --- | --- |
| 370.37 nM | 6 h | 58.7 |
| 370.37 nM |  | 58.7 |
| 10000 nM | 6 h | 30.4 |
| 10000 nM |  | 30.4 |

Block 3 — target: CEP164, C-terminal peptide (human); technique: DHFR complementation, deep sequencing; medium: yeast; relative to: wild type; reading: higher = weaker binding
Notes: single substitutions, model-inferred values
Parent: PDZK1, PDZ domain 2 (human); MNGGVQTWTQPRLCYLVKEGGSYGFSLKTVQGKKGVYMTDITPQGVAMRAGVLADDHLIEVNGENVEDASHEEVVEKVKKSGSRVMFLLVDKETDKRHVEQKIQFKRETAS; partner HNRVKVYRF
| Variant | binding free energy change |
| --- | --- |
| E108F | -0.277 kcal/mol |
| S111C | 0.0774 kcal/mol |
| G4N | 0.00299 kcal/mol |
| R107F | -0.0399 kcal/mol |
| S111G | -0.124 kcal/mol |
| D40A | 0.603 kcal/mol |
| P43C | 0.344 kcal/mol |
| L27P | 1.44 kcal/mol |

Block 4 — target: CCND2, cyclin fold, Cln2 fusion (human); technique: yeast growth competition, sequencing; medium: yeast; notes: weak parent motif; relative to: not given; reading: higher = stronger binding; parent: viral docking peptide; TSVRRALFTGGSD
| Variant | normalised enrichment score |
| --- | --- |
| TSVRRALFTGGID [S12I] | -0.0166 |
| TSVRRALYTGGSD [F8Y] | -0.242 |
| TSVRFALFTGGSD [R5F] | -0.279 |
| TSVRWALFTGGSD [R5W] | -0.0137 |
| TSVRRALLTGGSD [F8L] | 0.2 |
| TSVRRALFTGGYD [S12Y] | 0.183 |
| TSVRRLLFTGGSD [A6L] | 0.343 |
| TSVRRALFTDGSD [G10D] | -0.0518 |
| TSVRRALFNGGSD [T9N] | -0.0149 |
| TSVQRALFTGGSD [R4Q] | 0.115 |
| TSVRYALFTGGSD [R5Y] | -0.182 |
| TSVRRALMTGGSD [F8M] | 0.0951 |
| TSVRRALFVGGSD [T9V] | 0.0729 |
| TSVRRAPFTGGSD [L7P] | -0.0498 |
| TSVRRALVTGGSD [F8V] | 0.22 |
| TSVRRALFTLGSD [G10L] | -0.0348 |
| TSVTRALFTGGSD [R4T] | 0.0787 |
| TSVREALFTGGSD [R5E] | 0.135 |
| TSVRRQLFTGGSD [A6Q] | 0.239 |
| TSVRRALFWGGSD [T9W] | -0.526 |
| TTVRRALFTGGSD [S2T] | 0.221 |
| TSVRRALFTFGSD [G10F] | 0.0596 |
| TSVRLALFTGGSD [R5L] | -0.28 |
| TSVERALFTGGSD [R4E] | 0.00631 |
| TSVRRALFTGLSD [G11L] | -0.072 |

Block 5 — technique: protein binding microarray; molecule type: double-stranded DNA, one strand shown; medium: in vitro; concentration: not given; relative to: not given; reading: higher = stronger binding
Target: Histone acetyltransferase KAT6A, both winged helices, GST fusion (KAT6A, Homo sapiens, UniProt Q92794, residues 1-181)
Notes: 8-mer, flanks averaged, mean of 2 arrays, mostly near background
Target sequence (chain): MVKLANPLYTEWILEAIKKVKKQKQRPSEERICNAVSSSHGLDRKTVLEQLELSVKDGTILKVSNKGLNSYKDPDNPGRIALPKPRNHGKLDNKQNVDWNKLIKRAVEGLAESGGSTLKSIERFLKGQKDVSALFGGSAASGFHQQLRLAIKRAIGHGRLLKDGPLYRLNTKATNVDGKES
| Sequence | E-score |
| --- | --- |
| ACGTATCG | 0.0953 |
| ACCCATAG | -0.248 |
| TAACGATA | -0.0311 |
| CGTGTTAG | 0.137 |
| CAAGTATC | -0.182 |
| AACACGGC | 0.249 |
| AAGGGGAG | -0.196 |
| AGCAGTAC | -0.111 |

A few entries again (block 4):
| Variant | normalised enrichment score |
| --- | --- |
| TSVRFALFTGGSD [R5F] | -0.279 |
| TSVRRALLTGGSD [F8L] | 0.2 |
| TSVRRALVTGGSD [F8V] | 0.22 |
| TSVRRALFVGGSD [T9V] | 0.0729 |
| TSVRYALFTGGSD [R5Y] | -0.182 |
| TSVRRALMTGGSD [F8M] | 0.0951 |
| TSVERALFTGGSD [R4E] | 0.00631 |
| TSVRRQLFTGGSD [A6Q] | 0.239 |
